Measurements from different studies.
Several values in a cell are separate wells, animals, samples, runs or records. ± marks the error that the study gave.

| SMILES | tested on | assay | system | setting | how to read | quantity | value |
| --- | --- | --- | --- | --- | --- | --- | --- |
| CNc1cc(N)c(C(N)=O)c[n+]1C | – | substrate, item: methylated product | rats, plasma | oral, 30 mg/kg, 2.00 h | – | plasma concentration of product | 198 nM and 192 nM |
| CN(Cc1cc(C2CC2)on1)C(=O)c1cccc(-c2ccc(F)cc2)c1 | – | – | male ICR/CD-1 mouse, liver microsomes | 2 µM, 120 min, pH 7.5, with: 1-aminobenzotriazole 500 µM, preincubated 30 min | – | remaining compound | 62.3% |
| Cc1n[nH]c(C)c1CCCOc1cc(C(=O)NCCCCC(NC(=O)CN2CCN(CC(=O)[O-])CCN(CC(=O)[O-])CCN(CC(=O)[O-])CC2)C(=O)NCC2CCC(C(=O)NC(Cc3ccc4ccccc4c3)C(=O)NCCCCC(NC(=O)NC(CCC(=O)O)C(=O)O)C(=O)O)CC2)ccc1F.[177Lu+3] (centres unmarked) | – | radio-HPLC | saline | 8 days, room temperature | – | radiochemical purity | 87.26 ± 0.87% |
| CCCC[C@H](NC(=O)CNC(=O)CNC(=O)[C@H](CCCCNC(=O)[C@H](CC(=O)O)NC(=O)C(C)c1ccc(CC(C)C)cc1)NC(=O)CN1CCN(CC(=O)O)CCN(CC(=O)O)CCN(CC(=O)O)CC1)C(=O)N[C@H]1CC(=O)NCCCC[C@@H](C(N)=O)NC(=O)[C@H](Cc2c[nH]c3ccccc23)NC(=O)[C@H](CCCNC(=N)N)NC(=O)[C@@H](Cc2ccccc2)NC(=O)[C@H](Cc2c[nH]cn2)NC1=O (some centres unmarked) [lutetium-177 labelled] | – | – | C57 mice, tumour | intravenous, 0.037 MBq, 0.5 h | baseline: lung | tumour-to-tissue ratio | 4.11 |
| O=C([O-])CN1CCN(CC(=O)[O-])CCN(CC(CCCc2ccccc2[N+](=O)[O-])N(CC(=O)[O-])CC(=O)[O-])CC1.[90Y+3] (centres unmarked) | – | TLC | human serum | 336 h, pH 7, 37 °C | – | intact radiolabelled complex | 99.9 ± 0.2% |
| C/C(N)=N/C(=N\S(=O)(=O)c1ccc(C(F)(F)F)cc1)N1C[C@H](c2ccccc2)C(c2ccc(Cl)cc2)=N1 | – | – | male C57BL/6 mouse, liver | oral, 10 mg/kg | – | Tmax | 1.5 h |
| Cc1cc(-c2ccc(C(=O)[C@@H]3CCCC[C@H]3C(=O)Nc3cnn4c3C(=O)NCC4)cc2)[nH]n1 | – | – | human, urine | oral, 200 mg, 0-96 h | baseline: dose | cumulative recovery of radioactivity | 5.85% |
| CCCCN1C(=O)c2cccc3c(NCCCCCCCCCCN4CCOCC4)ccc(c23)C1=O | – | – | ethyl acetate | – | – | Stokes shift | 84 nm |
| O=c1c(-c2cnn(-c3ccccc3)c2)c(C(F)(F)F)oc2c(O)c(O)ccc12 | – | – | mouse | intraperitoneal, 100 mg/kg, DMSO vehicle | – | plasma clearance | 231 mL/min/kg |
| CCCC[C@H](NC(=O)COCCOCCNC(=O)CN1CCN(CC(=O)O)CCN(CC(=O)O)CC1)C(=O)N[C@H]1CC(=O)NCCCC[C@@H](C(N)=O)NC(=O)[C@H](Cc2c[nH]c3ccccc23)NC(=O)[C@H](CCCNC(=N)N)NC(=O)[C@@H](Cc2ccccc2)NC(=O)[C@H](Cc2c[nH]cn2)NC1=O [technetium-99m labelled] | – | – | C57 mouse, spleen | intravenous, 0.037 MBq, 4 h | – | tissue uptake | 0.1 ± 0.08 %ID/g |
| O=C(Nc1cnccc1-c1ccc([18F])nc1)c1ccnc(NC(=O)C2CC2)c1 | – | – | FVB/NJ mice (both sexes), small intestine | intravenous, dose not given, 120 min | – | SUV | 1.99 |
| CC[C@H](C)[C@H](NC(=O)[C@H](Cc1ccc(O)cc1)NC(=O)[C@@H](NC(=O)[C@H](CCCNC(=N)N)NC(=O)[C@@H](N)CC(=O)O)C(C)C)C(=O)N[C@@H](Cc1c[nH]cn1)C(=O)N1CCC[C@H]1C(=O)O | – | LC-MS/MS | Sprague-Dawley rat, both sexes, plasma | subcutaneous, 10 mg/kg/day, day 0, 0.75 h, 45 min | – | plasma concentration | 9.05 ng/mL |
| O=S(=O)(N[C@H]1CCO[C@@H](C2c3ccccc3CCc3ccccc32)C1)c1ccc(OC(F)(F)F)cc1 | – | – | mouse, brain | oral, 30 mg/kg, 2 h | – | brain concentration | ~2000 nM |
| CC(=O)N([O-])CCCCCNC(=O)CCC(=O)N([O-])CCCCCNC(=O)CCC(=O)N([O-])CCCCCN.[89Zr+4] | – | radio-TLC | aqueous buffer | 3 d, pH 8.5, 37 °C, 89Zr-labelled complex, with: DTPA 100-fold excess | – | intact complex | 98.4 ± 1.7% |
| CCCCN1C(=O)c2cccc3c(NCCCN4CCOCC4)ccc(c23)C1=O | – | – | ethyl acetate | – | – | Stokes shift | 80 nm |
| O=C(N/N=C/c1ccc2c(ccc[n+]2Cc2ccccc2)c1)c1cncc(C(=O)N/N=C/c2ccc3c(ccc[n+]3Cc3ccccc3)c2)n1 | MYC parallel G4 DNA | FRET melting | – | 1 µM, DNA 0.2 µM | – | ΔTm | 11.2 ± 0.2 °C |
| COC1CN([C@H]2CC[C@H]([C@@]3(C)Oc4c(Cl)cc(C(=O)NCc5c(SC)cc(C)[nH]c5=O)c(C)c4O3)CC2)C1 | – | RNA-seq, item: ZBTB46 | human, whole blood | dose not given, 24 h | baseline: pretreatment baseline | log2 fold change | 1.77 |
| O=C(Nc1cnccc1-c1ccc([18F])cc1)c1ccnc(NC(=O)C2CC2)c1 | – | ex vivo gamma counting | GSK-3β transgenic mice, early-stage, hippocampus | intravenous, 120 min, mean, P-gp inhibitor pretreatment, with: tariquidar 15 mg/kg iv | – | SUV | 0.26 |
| O=C1c2sc(-c3ccc(N4CCC(F)C4)nc3F)nc2CCN1c1cccnc1 (centres unmarked) | – | – | CD1 mouse, plasma | i.v., dose not given, 1.25 h | – | concentration | 16.3 ng/mL and 11.4 ng/mL and 13.5 ng/mL |
| C=CC(=O)Oc1ccc(OC)c(-c2c[nH]c3ncc(-c4cncc(C(=O)N(C)C)c4)cc23)c1 | – | HPLC | acetonitrile/water/DMSO | 50 µM, 37 °C, DIPEA 20 eq, with: N-α-acetyl-lysine | – | reactivity half-life | 2 to 4 h |
| C=C(NC(=O)c1csc(-c2nc3c(cc2O)-c2nc(cs2)C(=O)NC(C(C)O)C(=O)NC(=C(C)OC)c2nc(cs2)C(=O)NC2c4nc(cs4)C(=O)NC(COC(=O)c4c5c6c(cccc6n4O)COC(=O)C(OC4CC(C)(O)C(N(C)C)C(C)O4)C2OC5)c2nc-3cs2)n1)C(N)=O (centres unmarked) | – | – | cynomolgus monkey, plasma | intravenous, 3 mg/kg, single dose, infusion | – | Tmax | 0.51 h |
| CC[n+]1cccc2cc(/C=N/NC(=O)c3ccc4ccc(C(=O)N/N=C/c5ccc6c(ccc[n+]6CC)c5)nc4n3)ccc21 | MYC parallel G4 DNA | FRET melting | – | 1 µM, DNA 0.2 µM | – | ΔTm | 10.7 ± 0.1 °C |
| N#C[C@@H]1CC(F)(F)CN1C(=O)CNC(=O)c1ccnc2c(NC(=O)[C@H](CCCCNC(=O)CCOCCOCCOCCOCCOCCOCCNC(=O)CN3CCN(CC(=O)[O-])CCN(CC(=O)[O-])CCN(CC(=O)[O-])CC3)NC(=O)CCCc3ccc(I)cc3)cccc12.[177Lu+3] | U-87 MG tumour model | – | host not given, stomach | 24 h, tumour-bearing | – | tracer uptake | 0.8 %ID/g |
